# Measurements pooled from the literature.
# Protocols differ between the studies behind these lines. ± gives the spread as reported.
# STING1 H232R: Stimulator of interferon genes protein (STING1, Homo sapiens, UniProt Q86WV6, H232R)
# Sequence of UniProt Q86WV6 (whole entry, unmodified, looked up): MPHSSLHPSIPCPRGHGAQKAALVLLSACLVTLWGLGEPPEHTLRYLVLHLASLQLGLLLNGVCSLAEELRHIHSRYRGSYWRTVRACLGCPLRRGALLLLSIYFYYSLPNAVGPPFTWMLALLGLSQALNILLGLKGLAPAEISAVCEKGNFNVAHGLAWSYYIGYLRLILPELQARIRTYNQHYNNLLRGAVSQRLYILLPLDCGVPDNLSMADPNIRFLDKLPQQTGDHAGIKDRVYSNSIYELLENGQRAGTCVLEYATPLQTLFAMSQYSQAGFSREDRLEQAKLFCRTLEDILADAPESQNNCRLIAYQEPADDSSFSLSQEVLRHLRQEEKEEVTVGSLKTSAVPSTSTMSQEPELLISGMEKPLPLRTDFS
# Sequence of UniProt O00141 (whole entry, looked up): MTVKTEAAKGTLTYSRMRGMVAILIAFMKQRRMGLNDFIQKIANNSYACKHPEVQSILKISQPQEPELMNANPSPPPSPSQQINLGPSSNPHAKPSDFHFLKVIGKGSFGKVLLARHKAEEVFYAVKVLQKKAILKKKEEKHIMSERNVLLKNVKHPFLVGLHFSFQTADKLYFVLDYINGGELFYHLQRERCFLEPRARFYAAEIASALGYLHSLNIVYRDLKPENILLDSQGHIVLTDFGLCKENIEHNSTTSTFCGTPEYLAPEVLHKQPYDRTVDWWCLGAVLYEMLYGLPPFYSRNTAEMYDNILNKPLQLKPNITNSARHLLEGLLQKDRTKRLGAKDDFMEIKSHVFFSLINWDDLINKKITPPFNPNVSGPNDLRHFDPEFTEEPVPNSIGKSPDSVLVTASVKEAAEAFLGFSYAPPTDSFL
SMILES,target or system,test,test system,setting,scale,measurement,value
CN(Cc1ccccc1)C(=O)CN1CCN(CC(=O)[O-])CCN(CC(=O)N(C)Cc2ccccc2)CC1.[18F-].[Sc+3],,,"mouse, kidney","intravenous, 1 h",,tracer uptake,0.43 %ID/g
[123I]c1ccc2nc(-c3ccc(-n4ccnn4)nc3)cn2c1,,,"male Wistar rat, heart","intravenous, 4 MBq, 6 h",,tracer uptake,0.049 %ID/g
O=C(NCC[C@H](NC(=O)c1ncc(-c2ccccc2)o1)c1nc2ccccc2[nH]1)c1ccc([N+](=O)[O-])o1,STING1 H232R,"reporter gene, inhibitor",THP1-Dual KI-hSTING-R232,"24 h, 1 h preincubation, with: diABZI 500 nM",,EC50,10.5 µM
CN([O-])C(=O)CN1CCNCCN(CC(=O)N(C)[O-])CC1.[89Zr+4],,,"mouse, muscle","intravenous, 1 h",,tracer uptake,0.2 %ID/g
N=C(c1ccc([N+](=O)[O-])o1)N1CCC(NC(=O)c2cc(-c3ccc(F)cc3F)on2)(c2nc3ccccc3[nH]2)CC1,STING1 H232R,"reporter gene, inhibitor",THP1-Dual KI-hSTING-R232,"24 h, 1 h preincubation, with: diABZI 500 nM",,EC50,1.5 µM
Cc1ncsc1-c1ccc(C(C)NC(=O)C2CC(O)CN2C(=O)C(NC(=O)CCCCCCCCCCN2CCCC(Nc3ncc(Cl)c(Nc4ccccc4S(=O)(=O)C(C)C)n3)C2)C(C)(C)C)cc1 (centres unmarked),22Rv1,"RNA-seq, measured: NAV3 mRNA",,concentration not given,reference: DMSO,log2 fold change,-1.63
Cc1nn(-c2cccc(N)c2)c(=O)c2cnc(Nc3ccc(N4CCNCC4)cc3)nc12,"SGK1 (Homo sapiens, UniProt O00141)","kinase activity, inhibitor, SelectScreen kinase profiling",,,,IC50,0.928 µM
CN([O-])C(=O)CN1CCN(CC(=O)N(C)[O-])CCN(Cc2ccccn2)CC1.[89Zr+4],,,"mouse, liver","intravenous, 4 h",,tracer uptake,0.41 %ID/g
CN(Cc1ccccc1)C(=O)CN1CCN(CC(=O)[O-])CCN(Cc2cccc(C(=O)[O-])n2)CC1.[177Lu+3],,,"mouse, muscle","intravenous, 1 h",,tracer uptake,0.18 %ID/g
COc1ccc2c(c1)C(C)(C)C(/C=C/C1=C(Oc3ccc(C(=O)NCCCCOc4cc(CN(Cc5ccccn5)Cc5ccccn5)cc(CN(Cc5ccccn5)Cc5ccccn5)c4)cc3)C(=C/C=C3/N(CCCCS(=O)(=O)[O-])c4ccc(OC)cc4C3(C)C)CCC1)=[N+]2CCCCS(=O)(=O)[O-].O=[N+]([O-])[O-].O=[N+]([O-])[O-].[99Tc+].[C-]#[O+].[C-]#[O+].[C-]#[O+].[Zn+2],,,"mouse, bone",12 h,,tracer uptake,0.78 %ID/g
CN(Cc1ccccc1)C(=O)CN1CCN(CC(=O)[O-])CCN(CC(=O)[O-])CC1.[18F-].[Sc+3],,,"mouse, kidney","intravenous, 1 h",,tracer uptake,1.9 %ID/g
CC(=O)N([O-])CCCCCNC(=O)CCC(=O)N([O-])CCCCCNC(=O)CCC(=O)N([O-])CCCCCN.[89Zr+4],,,"mouse, fat",4 h,,tracer uptake,0.02 %ID/g
O=C([O-])CN1CCN(CC(=O)[O-])CCN(Cc2cccc(C(=O)[O-])n2)CC1.[177Lu+3],,,"mouse, liver","intravenous, 1 h",,tracer uptake,0.72 %ID/g
CN(O)C(=O)CCC(=O)NCCCN(CCCCN(CCCNC(=O)CCC(=O)N(C)O)C(=O)CCC(=O)N(C)O)C(=O)CCC(=O)N(C)O.[89Zr],,,"mouse, brain",1 h,,tracer uptake,0.09 %ID/g
CC(C(=O)O)n1nc(Cn2cc3cc(OCC[18F])c(Cl)cc3n2)c2ccccc2c1=O (racemic),,,"rat, blood",5 min,,tracer uptake,0.47 %ID/g
Cc1nc(N)nc2c1C(=O)N[C@@H](c1ccc(F)cc1-c1cccc(O[11CH3])n1)C2,,ex vivo biodistribution,"mice, U87 subcutaneous xenograft, stomach","60 min post-injection, baseline, vehicle pre-treatment",,tracer uptake,1.1 ± 1 %ID
COC1CN([C@H]2CC[C@H]([C@@]3(C)Oc4c(Cl)cc(C(=O)NCc5c(SC)cc(C)[nH]c5=O)c(C)c4O3)CC2)C1,,"RNA-seq, measured: SPTBN4","human, whole blood","dose not given, 24 h",reference: pretreatment baseline,log2 fold change,2.15

# Some of these lines once more:
SMILES,target or system,test,test system,setting,scale,measurement,value
CC(=O)N([O-])CCCCCNC(=O)CCC(=O)N([O-])CCCCCNC(=O)CCC(=O)N([O-])CCCCCN.[89Zr+4],,,"mouse, fat",4 h,,tracer uptake,0.02 %ID/g
CN([O-])C(=O)CN1CCNCCN(CC(=O)N(C)[O-])CC1.[89Zr+4],,,"mouse, muscle","intravenous, 1 h",,tracer uptake,0.2 %ID/g
